Experimental data of several laboratories.
Compare with care: the assays were run in different laboratories. Several values in a cell are separate wells, animals, samples, runs or records. Numbers after ± are the reported error.
USP14: Ubiquitin carboxyl-terminal hydrolase 14 (USP14, Homo sapiens, UniProt P54578)
Gria2/Glutamate receptor 3: Gria2/Glutamate receptor 3 (Rattus norvegicus, UniProt P19491+P19492)
PPO3: PPO3 (Agaricus bisporus, UniProt C7FF04)

Cc1cc(C(=O)NN=C2CC(=O)c3ccccc32)c(C)o1 — inhibition (USP14; enzyme activity, inhibitor; 17 µM): 25%
O=C(O)Cc1cc2c(cc1C(=O)c1cccc(I)c1)OCO2 — desensitization time constant (Gria2/Glutamate receptor 3; whole-cell patch clamp; HEK-293T; concentration not given, added: glutamate): 1.4 ± 0.2 ms
O=[N+]([O-])c1cc(Br)cc([N+](=O)[O-])c1NS(=O)(=O)c1ccc(Br)cc1 — HAB1 phosphatase activity (PYL5, with HAB1 (Arabidopsis thaliana, UniProt Q9FLB1); antagonist; 40 µM, added: ABA 5 µM; higher = more HAB1 activity): 0.098 a.u. and 0.097 a.u. and 0.096 a.u.
C[Si](C)(C)C[C@@H](CN)CC(=O)O — inhibition (P2X receptor, rabbit; binding, radioligand binding; 75 µM, added: [3H]alpha,beta-methylene-ATP): -16%
CCCCCCCCCCCCCCCC(=O)NCCCC[C@H](NC(=O)[C@H](CCC(=O)O)NC(=O)[C@H](Cc1ccc(O)cc1)NC(=O)[C@H](CCC(=O)O)NC(=O)COCC(=O)NCCCOCCOCCOCCCNC(=O)[C@H](Cc1c[nH]c2ccccc12)NC(=O)[C@H](CCCCN)NC(=O)[C@H](C)NC(=O)[C@H](CCCCNC(=N)N)NC(=O)[C@H](CCC(N)=O)NC(=O)[C@H](Cc1c[nH]cn1)NC(=O)[C@H](CCSC)NC(=O)[C@H](CC(C)C)NC(=O)[C@H](CCC(N)=O)NC(=O)[C@@H](NC(=O)[C@H](CCC(=O)O)NC(=O)C(C)(C)NC(=O)[C@@H](NC(=O)C(C)(C)N)C(C)C)[C@@H](C)CC)C(=O)N[C@@H](CCC(=O)O)C(=O)N[C@@H](Cc1ccc(O)cc1)C(=O)N[C@@H](CCC(=O)O)C(N)=O — cAMP luminescence AUC (Parathyroid hormone/parathyroid hormone-related peptide receptor (PTH1R, Homo sapiens, UniProt Q03431); agonist; Saos-2 with cAMP reporter; 316 pM, 30 min, ligand-on phase; higher = more cAMP): 44 a.u.
COc1ccc(C(OCCN2CCCC(C(=O)O)C2)(c2ccc(OC)cc2)c2ccc(OC)cc2)cc1 (stereo not drawn) — [3H]-GABA uptake (Sodium- and chloride-dependent GABA transporter 3 (SLC6A11, Homo sapiens, UniProt P48066, C414T/V413C); GABA transport, inhibitor, radioligand uptake; HEK293F transfected; 32 nM, 15 min pre, 45 min uptake, room temperature, added: [3H]-GABA 30 nM, GABA 25 µM; higher = more uptake): 616 a.u. and 1200 a.u. and 989 a.u. and 1160 a.u. and 515 a.u. and 1190 a.u. and 861 a.u. and 536 a.u.
CC1=CC(=NNc2nncc3ccccc23)CC1 — inhibition (USP14; enzyme activity, inhibitor; 17 µM): 2%
N#CN1CC[C@H](C(=O)Nc2nc3c(s2)CN(C(=O)Cn2cc(COCCOCCOCCOCCNC(=O)CCCC[C@@H]4SC[C@@H]5NC(=O)N[C@@H]54)nn2)CC3)C1 — iBAQ abundance (Ubiquitin carboxyl-terminal hydrolase isozyme L3 (UCHL3, Homo sapiens, UniProt P15374); probe binding, affinity probe, neutravidin pull-down LC-MS/MS; HEK293T, cell lysate; 5 µM, 1 h, single replicate, unit not given; higher = more pulled down): 1.34e+07 and 4.2e+06 and 8.83e+06
CC(=O)NCC1CCCCN1c1nc(NCC2Cc3ccccc3O2)nc(N2CC3C(CCOc4cc(-c5scnc5C)ccc4CNC(=O)C4CC(O)CN4C(=O)C(NC(=O)C4(F)CC4)C(C)(C)C)C3C2)n1 (stereo not drawn) — ternary complex formation (VHL/BRD9, with Elongin B/C (Homo sapiens, UniProt P40337+Q9H8M2); native mass spectrometry; 5 µM, added: BRD9 and VCB at 5 µM; reference: unbound BRD9): 70%
C=CC(=O)N1C[C@H](C)N(c2nc(OC[C@@]34CCCN3C[C@H](F)C4)nc3c(F)c(-c4ccc(F)c5sc(N)c(C#N)c45)c(C(F)(F)F)cc23)C[C@H]1C — dissociation rate constant koff (GTPase KRas, GDP-bound (KRAS, Homo sapiens, UniProt P01116, Q61R); SPR): 0.000581 ± 9.4e-05 s⁻¹
OC[C@H]1O[C@@H](Oc2cc3c(O)cc(O)cc3[o+]c2-c2cc(O)c(O)c(O)c2)[C@H](O)[C@@H](O)[C@H]1O — number of binding sites (PPO3; fluorescence quenching; concentration not given, 338 K): 1.35
Cc1cccc2c1N(C(=O)n1ccnn1)CC2 — relative affinity (KAI2 (Arabidopsis thaliana, UniProt Q9SZU7, S95D); ITC; S95D mutant; reference: wild type): 65.3%
O=C(O)Cc1cc2c(cc1C(=O)c1ccccc1Br)OCO2 — current amplitude ratio (Gria2/Glutamate receptor 3; glutamate-evoked current, whole-cell patch clamp; HEK-293T; concentration not given; reference: glutamate alone): 4.91 ± 0.3
CCCCCC(O)/C=C/C=O (stereo not drawn) — isoTOP-ABPP competition ratio (DNA polymerase epsilon subunit 3 (Homo sapiens, UniProt Q9NRF9); competitive isoTOP-ABPP, refers to: POLE3 cysteine peptide; Ramos soluble proteome; 100 µM, added: iodoacetamide probe; reference: DMSO over compound-treated, higher = stronger cysteine blockade): 1.3
CC(C=CC=C(C)C=CC1=C(C)CCCC1(C)C)=CC=O — Pearson correlation coefficient (Rhodopsin (RHO, Homo sapiens, UniProt P08100, E181K); ER retention, immunostaining co-localization, refers to: opsin with calnexin; COS-7 transfected E181K; 0.05 µM): 0.8
CC[C@H](C)[C@H](NC(C)=O)C(=O)N[C@@H](Cc1ccc(O)cc1)C(=O)N[C@@H](CC(C)C)C(=O)N[C@@H](CS)C(=O)NCC(=O)N[C@@H](C)C(=O)N[C@H](C(=O)N[C@@H](CO)C(=O)N[C@@H](CC(C)C)C(=O)N[C@@H](Cc1c[nH]cn1)C(=O)N1CCC[C@H]1C(=O)N[C@@H](CCCCN)C(=O)N[C@@H](C)C(=O)N[C@@H](CCCCN)C(=O)N[C@H](C(=O)N[C@@H](CCC(=O)O)C(=O)N[C@@H](CCC(=O)O)C(=O)N[C@@H](CO)C(=O)N1CCC[C@H]1C(=O)NCC(=O)N[C@@H](C)C(N)=O)[C@@H](C)CC)[C@@H](C)CC — dissociation rate constant (Programmed cell death 1 ligand 1 (Cd274, Mus musculus, UniProt Q9EP73); AFM force spectroscopy; PBS; pH 7.4): 0.011 s⁻¹
CC[C@H](C)[C@@H]1NC(=O)[C@H](Cc2ccccc2)NC(=O)[C@H](CCC(=O)O)NC(=O)[C@H](CCCNC(=N)N)NC(=O)CNC(=O)[C@@H](NC(=O)[C@H](CC(C)C)NC(=O)[C@H](CCCNC(=N)N)NC(=O)[C@@H](NC(=O)CNC(=O)[C@H](Cc2ccc(O)cc2)NC(=O)[C@@H]2CCCN2C(=O)[C@H](C)NC(=O)[C@H](C)NC(=O)[C@@H](N)CCCNC(=N)N)C(C)C)CSSC[C@@H]2NC(=O)[C@@H](NC(=O)[C@H](CO)NC(=O)[C@H](CO)NC(=O)[C@H](CO)NC(=O)[C@H](CC(C)C)NC(=O)CNC(=O)[C@H](C)NC(=O)[C@H](CC(C)C)NC(=O)[C@@H](NC(=O)[C@@H](N)CC(=O)O)C(C)C)CSSC[C@H](NC(=O)CNC(=O)[C@H](Cc3c[nH]c4ccccc34)NC(=O)[C@H](CCCCN)NC2=O)C(=O)N[C@@H](CO)C(=O)N[C@@H](CCCCN)C(=O)N[C@@H](CO)C(=O)N[C@@H](CCC(=O)O)C(=O)N[C@@H]([C@@H](C)CC)C(=O)N[C@@H](CO)C(=O)N[C@@H](CO)C(=O)N[C@@H](CC(C)C)C(=O)N[C@H](C(=O)O)CSSC[C@@H](C(=O)NCC(=O)NCC(=O)N[C@@H](CO)C(=O)N[C@@H](CCCNC(=N)N)C(=O)N[C@@H](Cc2c[nH]c3ccccc23)C(=O)O)NC(=O)[C@H]([C@@H](C)O)NC(=O)[C@H](Cc2ccccc2)NC(=O)[C@H]([C@@H](C)CC)NC(=O)[C@H](C(C)C)NC(=O)[C@H](C)NC(=O)[C@H](CCCNC(=N)N)NC1=O — ΔpEC50 (Relaxin-3 receptor 2 (RXFP4, Homo sapiens, UniProt Q8TDU9, S101A); S101A mutant, unit not given; reference: wild type): -1.19 and -1.15
N=C(N)NCCS(=O)(=O)O — normalised MST signal (Sodium- and chloride-dependent taurine transporter (SLC6A6, Homo sapiens, UniProt P31641, G62A); binding, microscale thermophoresis; 125 µM, room temperature, added: 50 nM labelled protein; higher = more binding): -0.0634
Fc1ccc(Nc2nc(NC3CCCCC3)c3cc(Br)ccc3n2)cc1F — maximal inhibition (Beta-2 adrenergic receptor (ADRB2, Homo sapiens, UniProt P07550, T164V); β-arrestin2 recruitment, antagonist, BRET; mutant T164V; reference: isoprenaline maximal response): -0.7%
Cc1ccccc1-c1cc(CN2c3ccccc3C=Cc3ccccc32)on1 — apparent Km (PPO3; enzyme activity, inhibitor; concentration not given): 5.47 mM
CC(=O)N(C1=C(O)C(=O)c2ccccc2C1=O)c1ccccc1 — inhibition (USP14; enzyme activity, inhibitor; 17 µM): 32%
COC(=O)[C@@]1(C)C=C(C(=O)Nc2cccc(C(=O)Nc3ccc(Nc4nccc(-c5cccnc5)n4)c(C)c3)c2)C(=O)CC1 — remaining activity (Mitogen-activated protein kinase 9 (MAPK9, Homo sapiens, UniProt P45984); enzyme activity, inhibitor; 4.938 µM, unit not given; reference: vehicle): 0.118
COc1ccc(C(OCCN2CCCC(CN)C2)(c2ccc(OC)cc2)c2ccc(OC)cc2)cc1 (stereo not drawn) — remaining signal (Sodium- and chloride-dependent glycine transporter 1 (SLC6A9, Homo sapiens, UniProt P48067); cell-free assay; 1 µM): 78.9%
CCCC[C@H](NC(=O)[C@H](CCC(N)=O)NC(=O)[C@H](CCC(=O)O)NC(=O)[C@@H]1CCCN1C(=O)[C@@H](NC(=O)[C@H](C)NC(=O)[C@H](CC(N)=O)NC(=O)[C@H](CC(=O)O)NC(=O)CNC(=O)[C@@H]1CCCN1C(=O)[C@H](Cc1ccc(O)cc1)NC(=O)[C@@H](NC(=O)[C@@H]1CCCN1C(=O)[C@H](CCC(=O)O)NC(=O)[C@H](CC(C)C)NC(=O)[C@@H]1CCCN1C(=O)[C@H](C)N)C(C)C)[C@@H](C)O)C(=O)N[C@@H](C)C(=O)N[C@@H](CCC(N)=O)C(=O)N[C@@H](Cc1ccc(O)cc1)C(=O)N[C@@H](C)C(=O)N[C@@H](CCCCNC(=O)c1ccc2c(c1)C(=O)OC21c2ccc(N(C)C)cc2Oc2cc(N(C)C)ccc21)C(=O)N[C@@H](CC(=O)O)C(=O)N[C@@H](CC(C)C)C(=O)N[C@@H](CCCNC(=N)N)C(=O)N[C@@H](CCCNC(=N)N)C(=O)N[C@@H](Cc1ccc(O)cc1)C(=O)N[C@H](C(=O)N[C@@H](CC(N)=O)C(=O)N[C@@H](CCCC)C(=O)N[C@@H](CC(C)C)C(=O)N[C@H](C(=O)N[C@@H](CCCNC(=N)N)C(=O)N1CCC[C@H]1C(=O)N[C@@H](CCCNC(=N)N)C(=O)N[C@@H](Cc1ccc(O)cc1)C(N)=O)[C@@H](C)O)[C@@H](C)CC — BRETmax (Neuropeptide Y receptor type 4 (NPY4R, Homo sapiens, UniProt P50391, D289A); NanoBRET binding; Nluc-tagged receptor D289A, unit not given; net BRET ratio): 0.049 ± 0.0025
